Literature values that unrelated publications cite.
Compare with care: the assays were run in different laboratories. ± marks the error that the study gave.
Sequence of UniProt P33535 (whole entry, looked up): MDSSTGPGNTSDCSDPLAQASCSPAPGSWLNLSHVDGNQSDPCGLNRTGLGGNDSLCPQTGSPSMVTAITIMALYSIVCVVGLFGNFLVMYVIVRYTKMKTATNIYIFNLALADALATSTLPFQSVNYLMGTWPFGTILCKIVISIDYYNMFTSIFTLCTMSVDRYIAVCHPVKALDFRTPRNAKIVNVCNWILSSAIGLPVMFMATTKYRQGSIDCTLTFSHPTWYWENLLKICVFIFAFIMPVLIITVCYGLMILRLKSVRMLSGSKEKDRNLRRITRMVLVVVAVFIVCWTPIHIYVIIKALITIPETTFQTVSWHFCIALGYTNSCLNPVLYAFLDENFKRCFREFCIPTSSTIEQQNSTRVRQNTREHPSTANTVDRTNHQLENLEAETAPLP
Sequence of UniProt P30542 (whole entry, looked up): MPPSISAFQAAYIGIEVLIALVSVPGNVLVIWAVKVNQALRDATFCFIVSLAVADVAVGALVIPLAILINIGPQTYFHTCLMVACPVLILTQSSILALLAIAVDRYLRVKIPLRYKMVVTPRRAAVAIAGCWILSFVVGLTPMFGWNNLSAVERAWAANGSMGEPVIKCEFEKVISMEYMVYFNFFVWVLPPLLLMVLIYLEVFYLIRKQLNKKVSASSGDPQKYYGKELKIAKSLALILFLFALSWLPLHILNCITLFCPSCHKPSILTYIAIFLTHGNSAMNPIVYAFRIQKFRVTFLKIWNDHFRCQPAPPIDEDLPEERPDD
Sequence of UniProt Q9Y5N1 (whole entry, looked up): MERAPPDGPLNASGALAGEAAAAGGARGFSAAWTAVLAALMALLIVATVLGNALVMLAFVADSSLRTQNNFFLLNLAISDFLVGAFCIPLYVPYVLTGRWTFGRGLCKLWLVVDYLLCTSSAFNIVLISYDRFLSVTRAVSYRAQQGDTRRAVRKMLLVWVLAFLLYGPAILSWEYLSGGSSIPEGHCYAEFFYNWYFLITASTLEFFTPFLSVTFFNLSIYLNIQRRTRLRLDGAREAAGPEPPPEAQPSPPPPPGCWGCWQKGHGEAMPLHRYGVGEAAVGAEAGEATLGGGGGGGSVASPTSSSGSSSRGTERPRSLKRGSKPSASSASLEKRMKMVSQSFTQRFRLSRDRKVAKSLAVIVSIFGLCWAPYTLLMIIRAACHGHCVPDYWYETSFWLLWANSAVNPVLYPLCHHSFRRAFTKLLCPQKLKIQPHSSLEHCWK

buprenorphine  AUC(0-24h) increase (human; dose not given, together with: delavirdine; reference: compound alone): 325%
R(-)-PIA  Hill coefficient (ADORA1 (Homo sapiens, UniProt P30542)): 0.9
H-Bcp-Tic-OH  Ki (Oprm1 (Rattus norvegicus, UniProt P33535); binding; rat brain membranes; together with: [3H]DAMGO): 2.27 ± 0.21 µM
cocaine hydrochloride  brain concentration (mouse (CD-1, male), brain; intraperitoneal, 20 mg/kg, 15 min): 3.45 ng/mg
(R)-α-methylhistamine  Hill coefficient (HRH3 (Homo sapiens, UniProt Q9Y5N1)): 1.1
buprenorphine  AUC(0-24h) increase (human; oral, dose not given, together with: delavirdine co-administration): 325%
maraviroc  AUC(0-24h) ratio (human; reference: vaginal tissue over blood plasma): 1.9

A few entries again:
buprenorphine  AUC(0-24h) increase (human; oral, dose not given, together with: delavirdine co-administration): 325%
